Measurements pooled from the literature.
Compare with care: the assays were run in different laboratories.

SMILES	assay	system	setting	endpoint	result
CC1(C)C(/C=C/C=C/C=C/C=C2\N(CCCCS(=O)(=O)O)c3ccc4ccccc4c3C2(C)C)=[N+](CCCCS(=O)(=O)[O-])c2ccc3ccccc3c21		solution	66 µM, 4 °C, dark, 800 nm	time to fluorescence decrease onset	2 days
N[C@@H](Cc1ccc(O)c(O)c1)C(=O)O	actiwatch activity	MPTP-lesioned marmoset, dyskinetic	20 mg/kg	time to OFF without dyskinesia	~145 min
Cc1cc(C#N)cc(C)c1Oc1nc(Nc2ccc(C#N)cc2)nc(N)c1Br		FaSSIF	concentration not given, no polymer	time to precipitation plateau	~30 min
C=CC(=O)NC1CCN(c2ncc3ncnc(Nc4ccc(Oc5ccc6c(c5)ncn6C)c(C)c4)c3n2)CC1		healthy male volunteers, urine	oral, 60 mg	time to urinary excretion plateau	~48 h
CN[C@H](CC(C)C)C(=O)N[C@H]1C(=O)N[C@@H](CC(N)=O)C(=O)N[C@H]2C(=O)N[C@H]3C(=O)N[C@H](C(=O)N[C@H](C(=O)O)c4cc(O)cc(O)c4-c4cc3ccc4O)[C@H](O)c3ccc(c(Cl)c3)Oc3cc2cc(c3O[C@@H]2O[C@H](CO)[C@@H](O)[C@H](O)[C@H]2O[C@H]2C[C@](C)(N)[C@H](O)[C@H](C)O2)Oc2ccc(cc2Cl)[C@H]1O		poloxamer 407 hydrogel	pH 7.4, 37 °C, single agent loaded	time to complete release	12 h
CC1(C)CCC(c2ccc(Cl)cc2)=C(CN2CCN(c3ccc(C(=O)NS(=O)(=O)c4ccc(N[C@H](CCN5CCOCC5)CSc5ccccc5)c(S(=O)(=O)C(F)(F)F)c4)cc3)CC2)C1			pH 6.5, 37 °C	time to solubility equilibrium	~72 h
C[C@@H](NC(=O)N1C(=O)[C@H](Cc2ccnc(N)c2)[C@H]1C(=O)O)C1CCCCC1	UPLC-MS/MS	healthy adult Chinese volunteers, plasma	continuous intravenous infusion, 0.6 mg/kg/h, day 1 of 5-day infusion, median	time to steady state	0.0425 days
CCN1CCN(Cc2ccc(Nc3ncc(F)c(-c4cc(F)c5nc6n(c5c4)[C@H](C)CCC6)n3)nc2)CC1	Phase Ia, non-compartmental	patients with advanced solid tumours, plasma	multiple dosing	time to steady state	7 days
Cn1cncc1[C@@](N)(c1ccc(Cl)cc1)c1ccc2c(c1)c(-c1cccc(Cl)c1)cc(=O)n2C		cancer patients, plasma	30 to 300 mg once or twice daily	time to steady state	≤ 3 days

A few entries again:
SMILES	assay	system	setting	endpoint	result
CN[C@H](CC(C)C)C(=O)N[C@H]1C(=O)N[C@@H](CC(N)=O)C(=O)N[C@H]2C(=O)N[C@H]3C(=O)N[C@H](C(=O)N[C@H](C(=O)O)c4cc(O)cc(O)c4-c4cc3ccc4O)[C@H](O)c3ccc(c(Cl)c3)Oc3cc2cc(c3O[C@@H]2O[C@H](CO)[C@@H](O)[C@H](O)[C@H]2O[C@H]2C[C@](C)(N)[C@H](O)[C@H](C)O2)Oc2ccc(cc2Cl)[C@H]1O		poloxamer 407 hydrogel	pH 7.4, 37 °C, single agent loaded	time to complete release	12 h
